Assay results of several laboratories.
Lines come from different studies, so protocols differ.
Target: Tyrosine-protein phosphatase non-receptor type 1 (PTPN1, Homo sapiens, UniProt P18031)
Residues used in one study (P18031 1-435): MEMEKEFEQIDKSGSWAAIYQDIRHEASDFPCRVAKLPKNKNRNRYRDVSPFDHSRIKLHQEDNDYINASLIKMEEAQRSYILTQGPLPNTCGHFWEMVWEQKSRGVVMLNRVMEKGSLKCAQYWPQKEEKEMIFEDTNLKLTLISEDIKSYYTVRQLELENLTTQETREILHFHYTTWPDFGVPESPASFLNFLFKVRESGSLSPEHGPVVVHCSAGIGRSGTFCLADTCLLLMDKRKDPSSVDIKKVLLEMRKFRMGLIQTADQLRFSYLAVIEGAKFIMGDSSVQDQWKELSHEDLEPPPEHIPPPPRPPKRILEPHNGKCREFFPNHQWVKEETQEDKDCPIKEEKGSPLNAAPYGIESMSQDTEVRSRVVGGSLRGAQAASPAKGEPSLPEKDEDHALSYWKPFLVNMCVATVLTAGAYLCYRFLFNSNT

assay | conditions | measurement | result | SMILES
enzyme activity, inhibitor, absorbance | – | IC50 | > 100 µM | CC1CCC2C(C(=O)O)=COC(OC3OC(CO)C(O)C(O)C3O)C12 (stereo not shown)
Lineweaver-Burk secondary plots | free enzyme | Ki | 0.5 µM | CC1(C)C=Cc2c(cc(O)c3c(=O)cc(-c4ccc(O)cc4O)oc23)O1
enzyme activity, inhibitor | – | Ki | 7.09 µM | CC(C)=CCCC(C)=CCCC(C)=CCc1c(O)cc(O)c(CC=C(C)C)c1-c1cc2ccc(O)cc2o1
enzyme activity, inhibitor, absorbance | – | IC50 | > 100 µM | O=C1C=C(CCc2ccc(OC3OC(CO)C(O)C(O)C3O)cc2)CCC1 (stereo not shown)
enzyme activity, inhibitor | – | Ki | 5.37 µM | COc1cc(O)cc(C=Cc2ccc(O)cc2)c1CC=C(C)CCC=C(C)C
enzyme activity, inhibitor | – | Ki | 8.08 µM | COc1cc(O)c(CC=C(C)C)c2c1C(=O)[C@H](O)[C@@H](c1ccccc1)O2
enzyme activity, inhibitor, absorbance | – | IC50 | > 100 µM | COC(=O)C1=COC(OC2OC(CO)C(O)C(O)C2O)C2C1CC(O)C2C (stereo not shown)
enzyme activity, inhibitor | – | Ki | 6.3 µM | COc1cc(O)cc(-c2cc3ccc(O)cc3o2)c1CC=C(C)CCC=C(C)CCC=C(C)C
Lineweaver-Burk secondary plots | free enzyme | Ki | 1.2 µM | C[C@@H]1O[C@@H](O[C@H]2C(=O)c3c(O)cc(O)cc3O[C@@H]2c2ccc(O)cc2)[C@H](O)[C@H](O)[C@H]1O
enzyme activity, inhibitor, absorbance | – | Ki | 3.46 µM | CC(C)(O)CC(=O)CC(C(=O)O)C1CC[C@]2(C)C1CCC1[C@@]3(C)CC[C@H](O)C(C)(C)C3CC[C@]12C (stereo partly shown)

For quick reference, copied from above:
assay | conditions | measurement | result | SMILES
enzyme activity, inhibitor | – | Ki | 6.3 µM | COc1cc(O)cc(-c2cc3ccc(O)cc3o2)c1CC=C(C)CCC=C(C)CCC=C(C)C
